Measured values pooled from the literature.
A part holds a random share of what one study measured. Substitutions count along the parent as printed.

Study 1
Target: RNA binding protein fox-1 homolog 2, RRM domain, GST-SBP tag (RBFOX2, Homo sapiens, UniProt O43251-10, residues 100-194)
Technique: RNA Bind-n-Seq
Molecule type: RNA
Sample: in vitro
Concentration: 365 nM
Notes: natural RNA segment, single round, ends assumed
Baseline: no-protein control
Reading: higher = stronger binding
Quantity: RBNS enrichment (R)
Shared flanks, not repeated: GGGAGUUCUACAGUCCGACGAUC … UGGAAUUCUCGGGUGCCAA
Target sequence (chain): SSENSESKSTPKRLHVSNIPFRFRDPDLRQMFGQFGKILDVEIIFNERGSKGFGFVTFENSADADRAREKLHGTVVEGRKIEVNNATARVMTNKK
GGAGAAGAGGGACCCCGGGGUUUCUAAUUUCAACCCCAAAUGACAUGUUUAUUUGCACCUGAUGCUCAGGAGCCAGAUGUGGACCCUGCAGAGCCAGGCUUGUACCACAG: 0.919
AAUGCAAAGCCACAUACUUUGAAAUAUAUUAUUCCAAAUUGAGCUCCCUUCCCUUUGCACAUAUUUUUUCCUCCCCUUAUUGAAGUCAGCUCUAACCCCAAAUUCUAGUA: 1.94
CUGAGGAAUGAUAGCGAAGAGUGUUUUUUUCAUAAACUGGAUCAAACUCCGUCUUCAUGUUUACCAUGGAGAGUUUUACAGAAAUCGGGCUGCACUCUGGGAGUGCUUAC: 0.448
GUACAUGUGAUGUUUGACUGUACCAUCGACUGUUAUGGAAGUUCAGCGUUGUAUGUCUCUCUACACUGUGGUGCACUUAACUUGUGGAUUUUUUAUACUAAAAAUGUAGA: 0.504
UUUUAAGAUGAAUUAAGGACUAUUAGCUCGAACUUCGAUGCAGAGUUUGUAAAUAAGGGUGUCUGUGCAGAUUUCCCCACAUUUAUUUGUAUAAAAAUUUCUCAUCUUUU: 0.542
CAGGGUAAGUUACUGGGAGUUUGCAAGACGGAGACAAGAUCCCUGGCUCUGCCGUGCUAAUCUUCAACGUCCAUGUCAUUGACUUCCACAACCCUGCGGAUGUGGUGGAA: 0.405
AAAGGCUUUCUUUCCAAUCCUUUAUAGCUUUGGAGACGCCUCCCCAAUUCCCCAGGGAAGGAAACUGUUGUGUCCAAUCCCCAUUAAAGACAAAUUGAUCAGUGCUUCCC: 0.413
CAGGACAGAGGUAGUGGCGGCCCCCAUGCCGCCCUCCUUGAGCUGGUGAGGAGAAGUCGCCAUUGAGCACACAACCUCCACCAGACUGCCAUGGCCCCGAACCUGCAAUU: 0.258
AAGCCCUUGUCUUCUCUUCCCCCCCACCCCACUAGGCCUGGUUAACCUUCCGUUUCCAGCUUCUCCCACUUCAGCCUGUUCCCACGGCACCGGGGUUUCUACUCCUGUAC: 1.03
UAAGAAAACUGGUCUUCAGAUAGUUAAGGGCUUGGGAUAAUUUAAGUGAAAAGUGAGAUCAGUAAUGAGCUGUGUUGUUAACAAUAUUAUCUGGUAAUAAUACCAUGCAA: 0.32
CACCAGAUCAAAAGGCAUAAACCAGACCUGUCCCAGGCCGAUGUGGAAAUAUGUUCUUUCUAGUUGUGGGUACCCUGAUCUAGGUGGUUUGUAAUUGUGCAUUACUGACU: 0.494
CUUUUUUGAGAGCACCCAGGUGACUUCUGACUUUUUCUGGCAAAAAUGUUGACUCUCCAUCCAUAGUGUUAGGGGCAGCCGUGGAAGCAGCAGCAGCCAGGGAUGUCUCU: 0.676

Study 2
Target: ABI1, truncated, D143A, DHFR fusion (Arabidopsis thaliana)
Technique: DHFR PCA, deep sequencing
Sample: yeast
Notes: methotrexate growth selection, single substitutions
Together with: (+)-ABA 0.0091 µM
Baseline: wild-type fitted maximum
Reading: higher = stronger binding
Quantity: relative binding score
Starting sequence: PYL1, truncated, DHFR fusion (Arabidopsis thaliana); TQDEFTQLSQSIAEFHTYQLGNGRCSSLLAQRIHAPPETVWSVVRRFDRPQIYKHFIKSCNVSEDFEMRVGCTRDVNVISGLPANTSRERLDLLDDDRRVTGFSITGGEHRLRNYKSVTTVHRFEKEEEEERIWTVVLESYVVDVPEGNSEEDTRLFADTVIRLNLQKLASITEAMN
V70L: 3.39%
P50W: -0.186%
A13L: 17.6%
M176R: 6.1%
L91P: -11.1%
Y115F: 21.9%
V78G: 31.2%
P83E: 13.6%
A158F: 21.2%
F5C: 9.32%
I52W: 8.01%
L94E: -10%
T6S: 33.7%
S42H: 1.49%
N22R: 37.9%
L164H: -1.26%

Study 3
Target: Hepatocyte nuclear factor 3-alpha (Foxa1, Mus musculus, UniProt P35582, residues 1-468, full length assumed)
Technique: EMSA with sequencing
Molecule type: double-stranded DNA, one strand shown
Sample: in vitro
Concentration: 10 and 20 nM
Notes: whole designed probe, mean of two concentrations, ends assumed
Baseline: negative control set to 0
Reading: higher = stronger binding
Quantity: normalised bound fraction
Shared flanks, not repeated: GTGAGCGGTGCCCATTGATGGGGAAC … TTTCACTGGGATCGTGGGGAC
Target sequence (chain): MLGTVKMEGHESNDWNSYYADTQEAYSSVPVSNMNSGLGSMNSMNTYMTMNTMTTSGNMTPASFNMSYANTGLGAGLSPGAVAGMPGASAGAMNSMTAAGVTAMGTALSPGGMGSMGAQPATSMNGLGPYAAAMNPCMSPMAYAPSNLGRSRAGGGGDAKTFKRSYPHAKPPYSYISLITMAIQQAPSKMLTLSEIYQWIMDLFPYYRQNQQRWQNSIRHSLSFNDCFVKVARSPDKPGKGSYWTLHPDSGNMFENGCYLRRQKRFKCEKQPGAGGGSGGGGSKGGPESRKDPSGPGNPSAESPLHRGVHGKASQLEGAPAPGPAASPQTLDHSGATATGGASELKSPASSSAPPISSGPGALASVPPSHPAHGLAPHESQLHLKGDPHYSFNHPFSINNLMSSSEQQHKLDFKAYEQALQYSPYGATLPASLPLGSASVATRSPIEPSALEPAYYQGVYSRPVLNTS
TTTCCAGCCCTTAGTTTCTGGCATTTAACCTGACTCTGGTCCCTGAATGGCATGGGAGTGCTTTCAACCACAGGTTTCCACATTCATGCCACTTGTTTGCTTTTTGATCTGACTCATTCCTACAGAGATCTTTATTTGCTTTGTGTTTCCAATGGAGAAAGAGCTTGGGAAGGGAGGATCCTAATTGTCTAAA: 0.473 ratio
CCCTTGGAATGAAGGCAAATGAGGATTTAGAATACTTGCAGGTTGTTCTGTCAGTACTAATTTGAGTGCTAAAGTTCTATTTGCAAACCTAAGTAAACAGGAATGTAGACAGCTTGAACAAGATGAAATTGTGATATCGCCCAAAGGAACAAGCTGATCAGGGAAAGCTCAGCATGCATTTGAATCAAGAGCA: 0.355 ratio
GCATGAGCCGCATTGCCCAGCAAAAGCCTCTAAGTGGTGATTTGCTGTTTGGCCTGAGAGTAATTTGGAGGCTGTGGCTGAGTCAGCTTCTCTAGATGACTGAGCTGATGTCACTTTTGACCTTCATTGTTCCATAATTCCTTATGAAACTCTTCTGAAGCACTGAGAACCATCGACGGATCATATCAGCATG: -0.0551 ratio
GACAGTACATGTTTTAGGATTTTTGGACCACACAGTCTCTGTCACAATGACTCAGCTTTGCCATTGTAGCGTGCAAACAGCCACAAACCATATGCAAACAAATGTATGCCAATAAAACTTTATTGAGGGTGTGGTTACAAAAGCAGGAGGACAGTGGAGTTGGCTTGCAGACAGTCATTTGCAGAGCCCTGAT: 0.383 ratio
AGCTGAGAGTCATTTCCTCATCTTTATTCCAAACGAAGCTGGACACTCCCTTTTCATTTTTGAAAAGTAATCTGTGTGAGAAGGCAGCCAGCATGTTTACCCACTGGGCTTGGAGCCAGACTTCTTTCCCTGGTTCTTCCTCTCTCTGTTTCTCAATCTCCCCTGCTCTAAGATGGCCAGATATGAAAAGCTG: 0.0875 ratio
TCTTGTCCTCCCCAGCCACTCTGCAAGGGAGTGGAAGGCGTCTACTACACGTCAGCATCCCTCTTCCTCGGGGCGGGGGTGCACCTTGGAAGTGCAAACATGTCTTATTTATATATGAATGAAGTAATAGATAAGAAGCAATGCCCTCCCAGGAATCACACTGTGACTTCTACCCTTGGGGAGCGGGCAGAGT: 0.222 ratio
GTAGGGGTAATGAAAAACTTCTTGTGCAAGCGGCCATTAATCAGCAGTGTAACATTGCATAACGTGCTCCAAAGCACGTGTCATGGGATCAGAGTACACAGCTGCATAATGCAGGCCAGTGTCTGTGCCTCCTGCTGACCTTTTCCAATGCAGAACTCGAACCATGTGATGCATGCTTCTTGCCAAGTCACTT: -0.0403 ratio
TCCAGAAGGTCATATAAGTGAAATCACACAGTAGCTAGCCTTTTGAATAAGGTTCCTTTCACTTAGCTTAGTGCATTTGAGATTCATCCACACAGATGACTCATCCATGGTTTGTTCCTTTTTATTGCTGAGTAGTAGTTGATTGTATGGTTGTGCCACCATGCCCATTCATTCACCAGCTGAAGAATACTCG: -0.0621 ratio

Study 4
Target: Histone acetyltransferase KAT6A, both winged helices, GST fusion (KAT6A, Homo sapiens, UniProt Q92794, residues 1-181)
Technique: protein binding microarray
Molecule type: double-stranded DNA, one strand shown
Sample: in vitro
Concentration: not given
Notes: 8-mer, flanks averaged, mean of 2 arrays, mostly near background
Baseline: not given
Reading: higher = stronger binding
Quantity: E-score
Construct (chain): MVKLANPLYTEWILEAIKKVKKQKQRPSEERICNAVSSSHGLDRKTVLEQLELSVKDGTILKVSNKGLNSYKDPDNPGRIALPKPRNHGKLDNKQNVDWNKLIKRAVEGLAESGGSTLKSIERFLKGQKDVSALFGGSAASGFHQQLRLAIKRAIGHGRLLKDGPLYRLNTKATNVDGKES
GGAGTTTA: -0.0758
CACTTTCC: -0.135
AGTTTAAG: -0.171
CCTAACAG: -0.151
AGTACATA: -0.0956
ACGCTTAG: 0.0747
CTGATAAG: -0.0513
ATTAATTA: -0.118
CAACACTG: -0.1
ACCGTACG: 0.284
AAGTGAAT: -0.0534
CATTATAC: -0.045
CCGTTCTA: 0.122
CAGGTCAG: -0.0736
CGCCGTTA: 0.295
CGGTTAAC: 0.206
TCTCACAA: 0.00253
AAAGGTGA: -0.177
CCCCTTTA: -0.199
TCATGTAA: 0.0485
CCTCAGGC: -0.0778
CTAACGTA: 0.0375
ATTGGGTA: -0.187
AGCCTCAT: -0.191
ACGAAGAC: -0.0775

For quick reference, copied from above (study 4):
CCGTTCTA: 0.122
CAACACTG: -0.1
GGAGTTTA: -0.0758
AGTTTAAG: -0.171
CATTATAC: -0.045
AAGTGAAT: -0.0534
CGGTTAAC: 0.206
AGTACATA: -0.0956
CGCCGTTA: 0.295
